Measurements from different studies.
A part holds a random share of what one study measured. Positions count from the first letter of the parent shown.

Study 1 — method: DHFR PCA, deep sequencing; matrix: yeast; added: (+)-ABA 17 µM; relative to: wild-type fitted maximum; direction: higher = stronger binding
Target: ABI1, truncated, D143A, DHFR fusion (Arabidopsis thaliana)
Notes: methotrexate growth selection, single substitutions
Parent: PYL1, truncated, DHFR fusion (Arabidopsis thaliana); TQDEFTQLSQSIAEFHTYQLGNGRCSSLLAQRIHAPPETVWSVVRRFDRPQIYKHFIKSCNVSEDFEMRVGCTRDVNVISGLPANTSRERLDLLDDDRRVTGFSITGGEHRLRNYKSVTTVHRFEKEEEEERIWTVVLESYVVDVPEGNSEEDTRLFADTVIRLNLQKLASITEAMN
| Variant | relative binding score [%] |
| --- | --- |
| G108V | -0.486 |
| V145E | -25.7 |
| V142S | 78.8 |
| S11R | 58.3 |
| E109H | 64.7 |
| S140E | 4.02 |
| D92G | 1.37 |
| K54A | -8.03 |
| F124K | 43.9 |
| S104Y | 7.32 |
| N177H | 81.5 |
| F103L | 8.11 |
| Q10R | 78.2 |
| N61G | 64.1 |
| L94S | 11.9 |
| A158T | 92 |

Study 2 — method: RNA Bind-n-Seq; form: RNA; matrix: in vitro; tested at: not given; notes: RNA with constant flanks, ends assumed; relative to: input RNA pool; direction: higher = stronger binding
Target: RING finger protein unkempt homolog, zinc fingers 1-6, GST-SBP tag (UNK, Homo sapiens, UniProt Q9C0B0, residues 30-357)
Shared flanks, not repeated: GGGAGUUCUACAGUCCGACGAUC … CAACAGAGGAUUGAGCAUCA
Target sequence (chain): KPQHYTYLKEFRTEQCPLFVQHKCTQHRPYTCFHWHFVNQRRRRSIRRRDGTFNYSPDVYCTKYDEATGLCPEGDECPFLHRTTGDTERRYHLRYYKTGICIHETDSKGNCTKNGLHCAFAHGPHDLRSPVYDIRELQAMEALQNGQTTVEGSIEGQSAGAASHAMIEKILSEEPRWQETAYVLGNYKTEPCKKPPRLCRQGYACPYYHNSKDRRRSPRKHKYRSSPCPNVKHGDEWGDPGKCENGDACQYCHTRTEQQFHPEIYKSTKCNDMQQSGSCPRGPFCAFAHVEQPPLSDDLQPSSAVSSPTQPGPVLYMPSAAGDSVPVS
| Oligonucleotide | bound/input enrichment [ratio] |
| --- | --- |
| CUCCCGGGGGGAGUCCAGGCCUUGGCUUUACCCAACGAAGAGGGUGCCACACCAUCCGACUCCGCUUUACGUGAAGGACACUCCAAGCUGGUGGAAGACGUCACAAAUUUUCAGGGCAGA | 0.154 |
| CGGAAUUGGGAUGACAUGAAGCACCUGUGGGACUACACAUUUGGACCAGAGAAACUCAAUACCGACACCAGAAACUGCAAGAUUUUACUUACAGAACCUCCCAUGAAUCCAACCAAAAAC | 0.286 |
| CUAUAAAGGCAGCGCCCCGGAGAGCUCUUGCGCGUCUUGUUCUUGCCUGGUGUCGGUGGUCCGUUUCUGCGACUUGUGUUGGGACUGCUGAUAGGAAGAUGUCUUCAGGAAAUGCUAAAA | 0.126 |
| CUGCAACCAACCUCAGGAUGCUAUUAAAUGCUAUUUAAAUGCAACUAGAAGCAAAAAUUGCCGUAAUACCUCUGGACUUGCAGCACGAAUUAAGUAUUUACAGAAUACUUCUGAUAAUUG | 0.23 |
| GCGCGAGCAGAGCGCGGUUGACCUCCCUUUCUCUGCUCAGCUCCAGCGUCAUUUCGGCCUCUCCGUUCUUCUGAACCCUGCUCCUGAGCUAGGUAGGAAACAUGAGCGGCACCAACUUGG | 0.0263 |
| AUUCAGAAUCACUUUGUGGAUGAGUAUGACCCUACGAUAGAGGACUCCUACAGGAAACAAGCCGUAAUUGAUGGAGAAACCUGUCUCUUGGAUAUUCUCGACACAGCAGGUCAAGAGGAG | 0.102 |
| AUGGAGGAGAACCAGCUAAAGAGCGAAAUGCAAGACGCCAAGGACCAGAACGAGCUGUCCGAAUUCAGAGUGCUAGAACUCGAAGUAAGAGACUCUAUCUGUUGUAAGCUCUCAAACGGA | 0.117 |
| AUGGAGGCGUCCAGCGAGCCGCCGCUGGAUGCUAAGUCCGAUGUCACCAACCAGCUUGCCGAUUUUCAGUGGAAACUGGGUAUGGCUGUGAGCUCAGACACUUGCAGAUCUCUUAAGUAU | 0.0771 |
| CCUGAGGUGCGGCACCACUGUCCCAACACUCCCAUCAUCCUAGUGGGAACUAAACUUGAUCUCCGGGAUGAUAAAGACACGAUCGAGAAACUGAAGGAGAAGAAGCUGACUCCCAUCACC | 0.295 |
| UAUCAUAAUGUGUAUACUCGAGAUCCUAAUUAUCUCAAUUUGUUCAUUAUUGUAAUGGAGAACCGUAAUCUCCACAGUCCUGAAUAUCUGGAAAUGGCGUUGCCAUUAUUUUGCAAAGCU | 0.267 |
| GUUUCUUUCCUGAAAGAAGUAGAAUCUCCUUAUGAGGUCCAUGAUUAUAUCAGGGCCUAUUCCGGAGAUACUUCUGAGGCCAAGGAGUUUGCCAAGCAGUUCCUUGAGCGCCGUGCCAAA | 0.15 |

Study 3 — method: RNA Bind-n-Seq; form: RNA; matrix: in vitro; tested at: 365 nM; relative to: no-protein control; direction: higher = stronger binding
Target: RNA binding protein fox-1 homolog 2, RRM domain, GST-SBP tag (RBFOX2, Homo sapiens, UniProt O43251-10, residues 100-194)
Notes: natural RNA segment, single round, ends assumed
Shared flanks, not repeated: GGGAGUUCUACAGUCCGACGAUC … UGGAAUUCUCGGGUGCCAA
Target sequence (chain): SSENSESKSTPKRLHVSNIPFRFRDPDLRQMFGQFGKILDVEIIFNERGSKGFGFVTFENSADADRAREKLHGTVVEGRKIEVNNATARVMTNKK
| Oligonucleotide | RBNS enrichment (R) |
| --- | --- |
| GUCCAAGAAUAAUCCAAGCUAGAGACACAAGGUGGGAAAACAUUUCAAAAAAAAAAAGUCCUCUUAAGGCCAGUAAUUUAUCUGAAAAGGUAUUUUAUCACACCUUGACA | 0.462 |
| GGCAGCAGGAAGAGCGCACUCUCGACAUUCUUGUCUCUGCUUUAGAAUGCUGCUGUGUCUGUCAUGUGUGCACUCCUCGCCCCUCCUCGCUUUGCUAACCAAAGAACAUA | 0.417 |
| UCUUCCCUCCGUGAGGGCCACGCUGUCACCACAGUCCUCCCAGAUGGGUUUUGGAUUAGCAUCAGUCCUGUGUCACCAAGUGCCAAACAGCUGAGGGGUAGAAGUGGGAC | 0.693 |
| AUAAAGAAAAUAAAAUCCUUCUGUAAUAAUCAAAUAAAGUACUUCCCAUAAUCAAAACCAAAUUGGUAUCUUCAGAGCCUAUUAAGUCUCAUCUUUUAUAAAGUUCGGCU | 0.505 |
| CUCCUGGCAAGUGAGAAAGCCCUUUAUGCAGCAAUAUAUCAUAGCAGGUGGCUGGGGACACUGCAUAUUCCCUGCUGGUGGCUCGGCUCACCUGUUCUGCCUCCCUUGGC | 0.508 |
| GGCUAAUUUUGUAUUUUUAGUAGAGACGGGGUUUCUCCAUGUUGGUAAGGCUGAUCUCAAACUCCCAACCUCAGGUGAUCUGCCUGCCUCGGCCUCCCAAAGUGCUGGGA | 1.18 |
| AGGGUUUUAAGGGACACCAGUGGAGGUGUGGCUGAAUCUUCAUGUAUUGUUUGGCUUUCUGAGGGAUGUUAGUGCCAAACUUGUAUAGGAGUGGGGUGCUGUCUUCCACU | 0.413 |
| GUAGAUUUGCUGGACCUGAUCCCCAAGCACAGGAGUGGUACCCUCCACAGAAGCUGGGGGAGAGUCUGCAGCAGGCCUGAGCCUGCUGAUGUCAGUGCUGACUGAGUCCA | 2.99 |
| UUCCUGCUUUUUACUGGGGACUCCAGAUUUUCCCCAAACUUGCUUCUGUUGAGAUUUUUCCCUCACCUUGCCUCUCAGGCACAAUAAAUAUAGUUAUACCACUGCCCAUC | 1.07 |
| GAAGAAAACAAUUUUUUAAAAAUUCUCAUUACAUAGACGCACAAGAAUAUGUCACAUAAAGAAAAUGUGUUUAGAAUACUGGUUUUCUAUUUACGCAUGAUAUUUUCCUA | 4.66 |
| AUUGCUUUUUUUCAGCAUCCCAAUUGUUAUAGGUUGCUCCUGAUAGAGGUAGCCACAGUCCUGGAGUACCAUAGGGUGAUGUUCCUUCUGCAUGCAUCUGCAGGGCCUGU | 6.59 |
| UCUGCUGAUAGCCAGGAAGGAGGGAGACCAGCCCUGCCCCUCAGGACCUGACCUGGCUCAUGAUGCCAAGAGGAAGACAGAGCUCUAGCCUCGUCUUCUCCUGCCCACAG | 0.327 |

Other studies, line by line
| Molecule | target | test | system | conditions | how to read | endpoint | value |
| --- | --- | --- | --- | --- | --- | --- | --- |
| PhoQ, residues 284 288 289 292 302 303 AGCYAI | PhoP, residues 12 14 15 18 19 STHWV (Escherichia coli, UniProt P23836) | Sort-seq, item: YFP reporter | E. coli | PhoQ-PhoP variant library, added: 10 µM Mg2+ | relative to: high Mg2+ state, higher = stronger signaling | fold induction | 2.94 |
